Results collected from several papers.
Compare with care: the assays were run in different laboratories. ± gives the spread as reported.

For `C#C[C@@]1(O)[C@@H](CO)O[C@@H](n2cc(F)c3c(N)ncnc32)[C@@H]1O`, the GI50 was -6.38 log M (NCI60 panel; cell growth; mean over panel).
For `O=C(/C=C/C=C/C=C/C1CCCCC1)NC1=C[C@@](O)(/C=C/C=C/C=C/C(=O)NC2=C(O)CCC2=O)[C@@H]2O[C@@H]2C1=O`, the GI50 was 14.6 µM (COV362; cell growth, CellTiter-Glo; 78 h).
With `Cc1ccc(C(=O)Nc2ccc(CN3CCN(C)CC3)c(C(F)(F)F)c2)cc1C#Cc1cnc2cccnn12` the GI50 was 0.0005 ± 0.0002 µM (KCL-22 KCL22-T315I; 48 h).
For `Cc1ccc(S(=O)(=O)/C=C/C#N)cc1`, the EC90 was 4980 µM (Toxoplasma gondii; parasite growth, luciferase reporter; HFF, tachyzoite; 72 h).
`[Cl-].[Cl-].[Os+2].c1cnc2c(c1)ccc1cccnc12.c1cnc2c(c1)ccc1cccnc12.c1cnc2c(c1)ccc1cccnc12` gave a GI50 of 144 µM (SK-MEL-28; cell growth, sulforhodamine B; green light, hypoxia 1% O2).
`COc1ccc(-c2ccc(-c3ccc(C(=N)N)nc3)s2)cc1` gave a GI50 of 1.75 µM (MDA-MB-231/ATCC; NCI five-dose screen).
The GI50 of `Cc1c(C(=O)O)ccc2c3n(nc12)[C@@H]1[C@H](C3)N(CC2CC2)[C@@]2(C(=O)Nc3cc(Cl)ccc32)[C@H]1c1cccc(Cl)c1F` is reported as 0.00014 µM (well-differentiated liposarcoma cells; alamarBlue; unbound concentration).
`O=C(O[C@]12C[C@H]3C[C@H](C[C@H](C3)C1)C2)c1ccc(NCc2cc(O)ccc2O)cc1` gave an EC50 of 5.96 µM (Toxoplasma gondii; parasite growth; HFF, bradyzoite, glutamine-induced).
The GI50 of `COc1cc2c(Nc3ccc(Br)cc3F)ncnc2cc1OCC1CCN(C)CC1` is reported as 1.01 µM (TT (RET C634W); cell growth, CellTiter-Glo; 72 h).
For `Cc1cn(-c2cc(NC(=O)c3ccc(C)c(Nc4nccc(-c5cccnc5)n4)c3)cc(C(F)(F)F)c2)cn1`, the GI50 was 0.00077 ± 0.002 µM (KCL-22 wild type; 48 h).

Some of these lines once more:
`[Cl-].[Cl-].[Os+2].c1cnc2c(c1)ccc1cccnc12.c1cnc2c(c1)ccc1cccnc12.c1cnc2c(c1)ccc1cccnc12` gave a GI50 of 144 µM (SK-MEL-28; cell growth, sulforhodamine B; green light, hypoxia 1% O2).
